Published values collected from several papers.
± marks the error that the study gave.
B1: UGT1A9 (Homo sapiens, UniProt O60656); chain GKLLVVPMDGSHWFTMRSVVEKLILRGHEVVVVMPEVSWQLGRSLNCTVKTYSTSYTLEDLDREFKAFAHAQWKAQVRSIYSLLMGSYNDIFDLFFSNCRSLFKDKKLVEYLKESSFDAVFLDPFDNCGLIVAKYFSLPSVVFARGILCHYLEEGAQCPAPLSYVPRILLGFSDAMTFKERVRNHIMHLEEHLLCHRFFKNALEIASEILQTPVTEYDLYSHTSIWLLRTDFVLDYPKPVMPNMIFIGGINCHQGKPLPMEFEAYINASGEHGIVVFSLGSMVSEIPEKKAMAIADALGKIPQTVLWRYTGTRPSNLANNTILVKWLPQNDLLGHPMTRAFITHAGSHGVYESICNGVPMVMMPLFGDQMDNAKRMETKGAGVTLNVLEMTSEDLENALKAVINDKSYKENIMRLSSLHKDRPVEPLDLAVFWVEFVMRHKGAPHLRPAAHDLTWYQYHSLDVIGFLLAVVLTVAFITFKCCAYGYRKCLGKKGRVKKAHKSKTH
Chain of UniProt P52926 (whole entry, looked up): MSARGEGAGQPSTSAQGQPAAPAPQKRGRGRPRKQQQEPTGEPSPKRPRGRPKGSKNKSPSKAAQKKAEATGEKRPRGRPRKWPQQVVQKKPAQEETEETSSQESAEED
Chain of UniProt P0A8W2 (whole entry, looked up): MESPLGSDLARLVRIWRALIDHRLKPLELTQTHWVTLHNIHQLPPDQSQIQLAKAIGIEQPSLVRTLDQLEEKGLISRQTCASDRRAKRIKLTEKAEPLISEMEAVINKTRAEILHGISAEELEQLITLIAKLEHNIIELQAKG
Chain of UniProt P25822 (whole entry, looked up): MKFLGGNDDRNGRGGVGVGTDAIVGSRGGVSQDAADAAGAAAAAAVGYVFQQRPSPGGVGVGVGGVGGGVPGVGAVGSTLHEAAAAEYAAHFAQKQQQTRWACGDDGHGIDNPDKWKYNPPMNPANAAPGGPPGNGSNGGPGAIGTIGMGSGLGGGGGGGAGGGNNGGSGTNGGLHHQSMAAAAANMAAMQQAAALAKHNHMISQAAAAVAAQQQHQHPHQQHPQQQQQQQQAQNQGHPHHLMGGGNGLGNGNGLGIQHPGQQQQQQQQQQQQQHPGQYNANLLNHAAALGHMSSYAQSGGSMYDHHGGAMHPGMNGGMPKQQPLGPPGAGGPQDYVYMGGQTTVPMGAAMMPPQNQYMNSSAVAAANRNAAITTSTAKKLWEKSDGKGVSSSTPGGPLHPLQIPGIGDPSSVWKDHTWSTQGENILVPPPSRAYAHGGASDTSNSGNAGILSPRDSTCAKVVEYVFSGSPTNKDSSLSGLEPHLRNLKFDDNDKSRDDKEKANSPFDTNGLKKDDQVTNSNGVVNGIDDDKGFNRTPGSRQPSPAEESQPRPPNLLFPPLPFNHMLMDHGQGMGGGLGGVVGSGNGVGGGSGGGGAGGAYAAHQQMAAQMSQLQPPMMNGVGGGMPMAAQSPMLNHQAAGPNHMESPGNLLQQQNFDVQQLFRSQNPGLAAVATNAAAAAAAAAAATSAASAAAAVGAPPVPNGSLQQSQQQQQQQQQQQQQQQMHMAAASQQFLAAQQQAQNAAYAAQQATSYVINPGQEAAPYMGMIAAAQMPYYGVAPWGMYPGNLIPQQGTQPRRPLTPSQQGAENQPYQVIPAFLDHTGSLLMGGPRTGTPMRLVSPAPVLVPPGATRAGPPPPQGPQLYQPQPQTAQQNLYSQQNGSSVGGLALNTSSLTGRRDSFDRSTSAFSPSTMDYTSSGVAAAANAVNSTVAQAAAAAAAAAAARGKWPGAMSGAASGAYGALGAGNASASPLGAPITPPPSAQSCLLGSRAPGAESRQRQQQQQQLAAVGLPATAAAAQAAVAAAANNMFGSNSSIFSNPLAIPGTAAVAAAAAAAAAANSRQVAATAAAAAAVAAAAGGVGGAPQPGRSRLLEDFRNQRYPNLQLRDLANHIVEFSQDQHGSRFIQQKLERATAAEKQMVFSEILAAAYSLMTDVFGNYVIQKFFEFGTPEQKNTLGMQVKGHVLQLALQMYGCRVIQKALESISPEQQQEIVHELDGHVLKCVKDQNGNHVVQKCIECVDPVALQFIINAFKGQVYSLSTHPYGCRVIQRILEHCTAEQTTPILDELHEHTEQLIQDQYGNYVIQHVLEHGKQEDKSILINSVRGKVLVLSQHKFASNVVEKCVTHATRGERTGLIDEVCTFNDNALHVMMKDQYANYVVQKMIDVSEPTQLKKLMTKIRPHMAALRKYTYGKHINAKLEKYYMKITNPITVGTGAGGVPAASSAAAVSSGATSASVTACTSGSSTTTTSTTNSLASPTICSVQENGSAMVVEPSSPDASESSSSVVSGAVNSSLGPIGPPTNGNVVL

GCCAATACGAATTTGGAGAGAGGAAAATATGGCACTAAAATACCGTTTCAAACCAAATGTTAAGGAGGTTTGGCGAATGTC (dsDNA) — binding (HTH arsR-type domain-containing protein (Pyrococcus furiosus, UniProt Q8U4J2); EMSA; double-stranded DNA, one strand shown): binds
CGGTNGATTC (ssDNA; THF abasic at position 5) — Kd (yedK 2-222 E105A (Escherichia coli, UniProt P76318); ITC): 70 nM
CCCCGGATCCTGACGGTAACCAAATGCAGCAATACATTTGTTTTAGCAATACAATTGCTGCACACTATTCTAAAAGCCGCATAATATCTTAGCAAGCTAATTATAAGGAGATGAAATTGGAATCGCCACTAGGTTCTGATCTGGCACGGTTGGTGCGCATATGGCGTGCTCTGATAGACCATCGTCGACGGG (dsDNA) — binding (slyA full length assumed (Escherichia coli, UniProt P0A8W2); EMSA; double-stranded DNA, one strand shown): binds
AGCTGCCAGGCACCAGTGTCA / TGACACTGGTGCTTGGCAGCT (dsDNA; 21-bp, G-T mismatch, dT20 linker) — Kd (MutS fragment E435C/R449C (Escherichia coli); SPR): 28 ± 1 nM
GCGACCUGGUGGUUCUGGCGGGGUGGCUGCACCCGUUCCCAUUCCGAACACGGCCGUGAAACGCCCCAGCGCCGAUGGUACUUCGUCUUAAGACGCGGGAGAGUAGGUCGCUGCCAGGUCU (structured RNA) — binding (metK 1-426 (Sinorhizobium meliloti, UniProt Q92SI4); filter binding; 0-500 nM): no binding
AAACTTCGCAAGGCTGTACCCTTGCAATTCTCTTTTGAGTTGTTCCTGCAAATGCTTCAAGATGTTCTGCTAGTGCTTTCTTTATGCGTACTTGCAATTCTCTTTTGAGTTGTTCGCTGCTGCTGGAATTGCTG (dsDNA) — binding (Uncharacterized protein full length assumed (Hyperthermus butylicus, UniProt A2BLH2); trypsin protection; double-stranded DNA, one strand shown): binds
GGGAGACCUAGCCUCAUAUAAUCGUUGUCCAGAAUUGUAUAUAUUCGUAGCAUAAGUUUUCCAAACAUUAUUUUGUUGUCGAAAAUUGUACAUAAGCCAAUUAAGCCGCUAAUUCU (ssRNA) — K1/2 (pum 1093-1426 (Drosophila melanogaster, UniProt P25822); EMSA; with tRNA, heparin): 20 nM
ATATTCGCGATTATT (dsDNA) — Ka (HMGA2 full length assumed (Homo sapiens, UniProt P52926); EMSA; double-stranded DNA, one strand shown): 5.2e+07 M⁻¹
GGGAGACCGUGCUCAGUCUGUUGUUGAUUACCUGAUCUCCAAAGGUAUCCCGGCAGACAAGAUCUCCGCACGUGGUAUGGGCGAAUCCAACCCGGUUACUGGCAACACCUGUGACAACGUGAAACAGCGUGCUGCACUGAUCGACUGCCUGGCUCCGGAUCGUCGCGUAGAGAUCGAAGUUAAAGGUAUCAAAGACGUUGUAACUCAGCCG (ssRNA) — binding (hfq full length assumed (Escherichia coli, UniProt P0A6X3); EMSA; together with: Mg2+ 1 mM): no binding
B1 (UGT1A9) — Vmax (Cc1c(-c2ccccc2)oc2cc(O)ccc2c1=O; steady-state kinetics; pH 7.4, 37 °C): 0.00293 µmol/min/mg
CTGGAGTACAATTCCATTCCATTCCATTCCATTCCATTCCATTCCATTCCATTCCATTCCATTCCATTCCATTCCATTCCATTCCATTCCTAACTTTCTA (dsDNA) — Kd (F2 alpha-thrombin (Homo sapiens); ITC; double-stranded DNA, one strand shown; pH 6.0): 1020 nM

For quick reference, copied from above:
GGGAGACCUAGCCUCAUAUAAUCGUUGUCCAGAAUUGUAUAUAUUCGUAGCAUAAGUUUUCCAAACAUUAUUUUGUUGUCGAAAAUUGUACAUAAGCCAAUUAAGCCGCUAAUUCU (ssRNA) — K1/2 (pum 1093-1426 (Drosophila melanogaster, UniProt P25822); EMSA; with tRNA, heparin): 20 nM
